Assay results of several laboratories.
A part holds a random share of what one study measured. Positions count from the first letter of the parent shown.

Series 1
Target: CCNE2, cyclin fold, Cln2 fusion (human)
Technique: yeast growth competition, sequencing
Sample: yeast
Setting: weak parent motif
Relative to: not given
Direction: higher = stronger binding
Starting sequence: REV3L docking peptide (human); PPVIIKYIIINRF; partner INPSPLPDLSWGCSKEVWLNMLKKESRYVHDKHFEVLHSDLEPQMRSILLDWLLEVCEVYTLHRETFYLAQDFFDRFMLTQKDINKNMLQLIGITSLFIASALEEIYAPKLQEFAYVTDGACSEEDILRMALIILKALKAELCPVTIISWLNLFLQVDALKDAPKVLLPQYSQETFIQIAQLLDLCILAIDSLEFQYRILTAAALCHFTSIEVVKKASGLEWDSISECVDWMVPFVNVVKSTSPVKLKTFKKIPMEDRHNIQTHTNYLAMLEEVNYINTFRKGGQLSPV
Change | normalised enrichment score
PPVIIKYIIANRF [I10A] | 0.971
PPVIAKYIIINRF [I5A] | 0.574
PPVIIKYIIINAF [R12A] | 0.269
PPVIIAYIIINRF [K6A] | 0.118
PPVIIKYAIINRF [I8A] | 0.349
PPAIIKYIIINRF [V3A] | 0.986

Series 2
Target: Interferon regulatory factor 5, full length, phosphomimetic (IRF5, Homo sapiens, UniProt Q13568-2, residues 1-514, K96S/S451D/S453D/S456D/S462D)
Technique: protein-binding microarray
Molecule type: double-stranded DNA, one strand shown
Sample: in vitro
Concentration: 250 nM
Setting: 60-bp whole probe
With: salmon DNA 0.4 mg/ml
Relative to: random background probes
Direction: higher = stronger binding
Constant ends, left off below: GCCTAGCAC … GTCTTGATTCGCTTGACGCTGCTG
Sequence | log fluorescence [z-score]
TTAGGACTGGTGTTTCGGTTAGTGCTA | 6.78
TTAGGCCTCGGTCTCGGTTAGTGCTAG | 0.0967
AAAGTCTTCACTCTGCTGAAGTGCTAG | 0.151
GACGGTTTCGACTACCGGGACGTGCTA | 6.28
TTAGGTATCGGACTGAGTTAGTGCTAG | 1.62
GACGATATAGGGTATCGAGACGTGCTA | 0.553
TTAGGACTGGGTTTCGGTTAGTGCTAG | 7.58
GACGATCTCAGTATCGAGATGTGCTAG | 1.91
TAGGGACTCAGGTCTCCCTTGGTGCTA | -0.648
TATATTATATATTTATGTATGTGCTAG | 0.92
TTCACTCTCTGCTTGTATCTGTGCTAG | 1.13
ATCATTTTTGCTTACGATGCGTGCTAG | 1.24
GACGGTTTCATTTTCCTGACGTGCTAG | 2.73
GACGGACTGGACTTACGGGACGTGCTA | -0.672
TTAGGTCTCCTTATCCTTTGGTGCTAG | -0.115
GTGTATATGGACGTCTGAAGGTGCTAG | -0.427
TTAGCTATCGGGTATCGGTTAGTGCTA | 6.97
GACGGTATCGGGTTTCGCGACGTGCTA | 2.87
TTAGCTATCGGTCTCGGTTAGTGCTAG | 7.28
GATGGAAACTTAAACTAGAAAGTGCTA | 0.969

Series 3
Target: Prothrombin, mature alpha-thrombin (F2, Homo sapiens, UniProt P00734)
Technique: aptamer microarray, sandwich
Molecule type: DNA with 2'F-ANA
Sample: in vitro
Concentration: 200 nM
Setting: whole 15-mer aptamer, many near background
With: Cy3 exosite-II aptamer, 400 nM
Direction: higher = stronger binding
Sequence: GGTTGGTGTGGTTGG
Modification | mean fluorescence intensity
2'F-ANA at 1 3 4 5 7 9 11 12 13 | 68.3 a.u.
2'F-ANA at 2 3 5 7 12 14 | 56.1 a.u.
2'F-ANA at 2 3 4 8 9 10 11 | 240 a.u.
2'F-ANA at 3 5 7 8 10 11 13 14 | 51.3 a.u.
2'F-ANA at 1 3 6 9 10 13 14 | 59.3 a.u.
2'F-ANA at 1 2 3 5 7 8 10 11 12 14 | 49.2 a.u.
2'F-ANA at 1 2 4 5 7 9 10 11 12 | 51.8 a.u.
2'F-ANA at 2 4 6 11 14 | 97 a.u.
2'F-ANA at 1 4 5 7 9 10 12 14 | 280 a.u.
2'F-ANA at 2 3 6 8 9 10 12 13 15 | 335 a.u.
2'F-ANA at 3 4 7 9 13 | 532 a.u.
2'F-ANA at 1 2 6 7 9 12 13 | 203 a.u.
2'F-ANA at 1 2 4 5 6 8 9 11 13 14 | 55.3 a.u.
2'F-ANA at 7 8 10 | 180 a.u.
2'F-ANA at 3 5 7 8 9 14 | 63.7 a.u.
2'F-ANA at 1 2 7 8 9 13 | 170 a.u.
2'F-ANA at 4 5 6 7 10 12 15 | 49.1 a.u.
2'F-ANA at 1 3 4 5 6 9 12 13 15 | 70.8 a.u.
2'F-ANA at 1 7 12 13 | 317 a.u.
2'F-ANA at 2 4 6 13 15 | 171 a.u.
2'F-ANA at 3 4 5 6 7 12 | 241 a.u.
2'F-ANA at 7 9 11 14 15 | 174 a.u.
2'F-ANA at 1 3 4 7 10 12 13 15 | 70.3 a.u.
2'F-ANA at 1 3 4 7 8 13 14 15 | 79.9 a.u.
2'F-ANA at 2 4 5 7 9 10 11 13 15 | 49 a.u.

Further values, each from its own experiment
Substance | target | test | system | setting | how to read | measurement | value
PhoQ, residues 284 288 289 292 302 303 SVHLDV | PhoP, residues 12 14 15 18 19 NYFTV (Escherichia coli, UniProt P23836) | Sort-seq, refers to: YFP reporter | E. coli | PhoQ-PhoP variant library, with: 10 µM Mg2+ | relative to: high Mg2+ state, higher = stronger signaling | fold induction | 4.85
